Experimental data gathered from unrelated publications.
Numbered parts are unrelated; each lists some results of a single study.
UniProt Q9UEE5, sequence (whole entry, looked up): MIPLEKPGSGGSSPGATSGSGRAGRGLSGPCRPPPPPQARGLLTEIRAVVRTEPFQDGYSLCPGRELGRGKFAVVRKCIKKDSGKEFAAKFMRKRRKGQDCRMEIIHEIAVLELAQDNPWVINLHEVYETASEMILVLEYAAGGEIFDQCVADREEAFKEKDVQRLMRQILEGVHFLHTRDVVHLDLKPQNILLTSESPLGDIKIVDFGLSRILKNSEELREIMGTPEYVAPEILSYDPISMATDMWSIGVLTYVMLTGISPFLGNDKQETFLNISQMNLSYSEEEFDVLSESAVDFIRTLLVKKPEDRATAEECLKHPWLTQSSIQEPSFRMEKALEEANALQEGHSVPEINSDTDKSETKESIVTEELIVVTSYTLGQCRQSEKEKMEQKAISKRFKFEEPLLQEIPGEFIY
UniProt P42685, sequence (whole entry, looked up): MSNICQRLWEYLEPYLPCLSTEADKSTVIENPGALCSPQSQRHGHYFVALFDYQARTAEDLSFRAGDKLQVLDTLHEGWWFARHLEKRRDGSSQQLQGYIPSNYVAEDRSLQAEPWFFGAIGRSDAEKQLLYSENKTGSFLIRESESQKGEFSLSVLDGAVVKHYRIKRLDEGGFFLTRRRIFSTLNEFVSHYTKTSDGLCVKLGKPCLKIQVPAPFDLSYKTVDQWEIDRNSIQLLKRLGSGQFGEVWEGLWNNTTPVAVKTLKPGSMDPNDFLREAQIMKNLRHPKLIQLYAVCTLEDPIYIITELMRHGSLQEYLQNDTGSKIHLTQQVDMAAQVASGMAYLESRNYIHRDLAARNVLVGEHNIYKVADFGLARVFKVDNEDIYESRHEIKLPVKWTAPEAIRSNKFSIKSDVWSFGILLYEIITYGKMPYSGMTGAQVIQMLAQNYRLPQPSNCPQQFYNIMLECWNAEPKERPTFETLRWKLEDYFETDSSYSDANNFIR
UniProt Q9BQI3, sequence (whole entry, looked up): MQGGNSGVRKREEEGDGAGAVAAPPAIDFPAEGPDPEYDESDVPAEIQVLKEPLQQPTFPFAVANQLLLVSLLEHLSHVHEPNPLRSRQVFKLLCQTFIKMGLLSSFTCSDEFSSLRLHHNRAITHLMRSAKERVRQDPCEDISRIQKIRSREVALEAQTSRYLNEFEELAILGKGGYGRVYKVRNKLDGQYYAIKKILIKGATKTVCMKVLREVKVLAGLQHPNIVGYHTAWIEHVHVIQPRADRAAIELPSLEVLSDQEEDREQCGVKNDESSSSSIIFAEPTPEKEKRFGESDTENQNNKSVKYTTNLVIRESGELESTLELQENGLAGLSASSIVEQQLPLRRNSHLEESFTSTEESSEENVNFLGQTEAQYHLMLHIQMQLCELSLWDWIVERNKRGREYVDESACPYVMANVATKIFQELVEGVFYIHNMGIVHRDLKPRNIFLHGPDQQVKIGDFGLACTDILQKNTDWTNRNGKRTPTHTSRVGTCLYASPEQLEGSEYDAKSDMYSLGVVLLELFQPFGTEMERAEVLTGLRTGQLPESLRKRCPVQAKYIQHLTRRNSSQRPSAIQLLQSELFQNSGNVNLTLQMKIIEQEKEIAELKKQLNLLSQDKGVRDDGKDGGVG
UniProt Q8IVW4, sequence (whole entry, looked up): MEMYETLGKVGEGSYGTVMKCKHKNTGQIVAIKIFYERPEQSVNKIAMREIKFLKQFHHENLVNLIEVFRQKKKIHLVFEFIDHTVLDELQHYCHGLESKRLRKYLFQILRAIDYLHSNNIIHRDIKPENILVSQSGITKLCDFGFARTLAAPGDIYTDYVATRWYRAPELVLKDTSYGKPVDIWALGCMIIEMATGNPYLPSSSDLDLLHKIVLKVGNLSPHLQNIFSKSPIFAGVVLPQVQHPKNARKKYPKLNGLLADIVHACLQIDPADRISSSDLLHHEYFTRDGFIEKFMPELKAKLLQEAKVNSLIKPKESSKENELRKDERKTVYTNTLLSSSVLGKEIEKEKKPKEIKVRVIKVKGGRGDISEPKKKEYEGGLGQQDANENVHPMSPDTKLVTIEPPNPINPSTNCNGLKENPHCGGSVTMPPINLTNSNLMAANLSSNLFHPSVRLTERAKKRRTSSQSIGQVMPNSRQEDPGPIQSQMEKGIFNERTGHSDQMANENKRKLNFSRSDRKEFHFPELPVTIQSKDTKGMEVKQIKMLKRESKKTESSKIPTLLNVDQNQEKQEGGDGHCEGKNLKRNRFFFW
UniProt Q9UQM7, sequence (whole entry, looked up): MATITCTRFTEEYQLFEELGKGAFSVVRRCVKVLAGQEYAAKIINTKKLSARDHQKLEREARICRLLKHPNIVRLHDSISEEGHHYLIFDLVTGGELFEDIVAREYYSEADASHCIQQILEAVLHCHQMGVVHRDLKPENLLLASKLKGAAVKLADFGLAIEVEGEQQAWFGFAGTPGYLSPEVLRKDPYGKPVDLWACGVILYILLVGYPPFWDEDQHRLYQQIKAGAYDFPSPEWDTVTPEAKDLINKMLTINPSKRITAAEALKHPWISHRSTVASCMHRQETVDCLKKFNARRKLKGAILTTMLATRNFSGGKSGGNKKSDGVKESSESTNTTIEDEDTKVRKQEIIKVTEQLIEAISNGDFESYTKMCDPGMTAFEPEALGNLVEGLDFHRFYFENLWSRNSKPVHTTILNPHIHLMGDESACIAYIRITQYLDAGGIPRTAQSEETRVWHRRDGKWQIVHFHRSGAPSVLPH
UniProt Q32MK0, sequence (whole entry, looked up): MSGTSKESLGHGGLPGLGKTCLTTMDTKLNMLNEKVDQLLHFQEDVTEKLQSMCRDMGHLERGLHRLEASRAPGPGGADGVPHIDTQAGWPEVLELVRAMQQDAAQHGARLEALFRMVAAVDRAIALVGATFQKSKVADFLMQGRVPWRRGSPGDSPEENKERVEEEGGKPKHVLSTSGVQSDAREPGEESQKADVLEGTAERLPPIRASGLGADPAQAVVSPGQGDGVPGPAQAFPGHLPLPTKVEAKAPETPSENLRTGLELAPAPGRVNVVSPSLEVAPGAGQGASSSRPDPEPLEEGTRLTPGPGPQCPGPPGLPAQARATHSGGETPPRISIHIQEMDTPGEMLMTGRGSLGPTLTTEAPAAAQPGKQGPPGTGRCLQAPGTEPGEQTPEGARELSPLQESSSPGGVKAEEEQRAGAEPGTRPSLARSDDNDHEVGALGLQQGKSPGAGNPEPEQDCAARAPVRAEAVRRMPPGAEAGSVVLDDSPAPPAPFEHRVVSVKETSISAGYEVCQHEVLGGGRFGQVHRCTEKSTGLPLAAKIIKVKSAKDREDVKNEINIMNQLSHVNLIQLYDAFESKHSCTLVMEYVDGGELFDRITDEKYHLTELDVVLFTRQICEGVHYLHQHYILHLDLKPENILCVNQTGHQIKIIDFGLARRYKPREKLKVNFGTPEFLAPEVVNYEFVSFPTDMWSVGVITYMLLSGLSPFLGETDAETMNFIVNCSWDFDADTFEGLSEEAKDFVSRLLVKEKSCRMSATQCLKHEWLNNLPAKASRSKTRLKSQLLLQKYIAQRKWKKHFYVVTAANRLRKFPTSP
UniProt Q13555, sequence (whole entry, looked up): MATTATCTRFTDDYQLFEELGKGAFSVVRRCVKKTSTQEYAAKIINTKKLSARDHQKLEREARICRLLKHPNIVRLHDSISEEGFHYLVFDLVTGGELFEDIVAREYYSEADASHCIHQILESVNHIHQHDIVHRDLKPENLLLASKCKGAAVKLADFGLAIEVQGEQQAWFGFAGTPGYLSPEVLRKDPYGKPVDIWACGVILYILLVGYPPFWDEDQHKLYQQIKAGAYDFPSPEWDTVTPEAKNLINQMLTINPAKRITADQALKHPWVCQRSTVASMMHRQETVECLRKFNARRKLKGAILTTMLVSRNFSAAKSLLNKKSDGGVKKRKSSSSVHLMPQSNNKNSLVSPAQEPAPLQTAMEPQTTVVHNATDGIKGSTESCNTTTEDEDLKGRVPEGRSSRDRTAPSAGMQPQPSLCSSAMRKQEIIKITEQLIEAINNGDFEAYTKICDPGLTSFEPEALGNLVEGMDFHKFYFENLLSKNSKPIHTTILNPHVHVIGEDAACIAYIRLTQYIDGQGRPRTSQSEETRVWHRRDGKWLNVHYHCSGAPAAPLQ
UniProt P20794, sequence (whole entry, looked up): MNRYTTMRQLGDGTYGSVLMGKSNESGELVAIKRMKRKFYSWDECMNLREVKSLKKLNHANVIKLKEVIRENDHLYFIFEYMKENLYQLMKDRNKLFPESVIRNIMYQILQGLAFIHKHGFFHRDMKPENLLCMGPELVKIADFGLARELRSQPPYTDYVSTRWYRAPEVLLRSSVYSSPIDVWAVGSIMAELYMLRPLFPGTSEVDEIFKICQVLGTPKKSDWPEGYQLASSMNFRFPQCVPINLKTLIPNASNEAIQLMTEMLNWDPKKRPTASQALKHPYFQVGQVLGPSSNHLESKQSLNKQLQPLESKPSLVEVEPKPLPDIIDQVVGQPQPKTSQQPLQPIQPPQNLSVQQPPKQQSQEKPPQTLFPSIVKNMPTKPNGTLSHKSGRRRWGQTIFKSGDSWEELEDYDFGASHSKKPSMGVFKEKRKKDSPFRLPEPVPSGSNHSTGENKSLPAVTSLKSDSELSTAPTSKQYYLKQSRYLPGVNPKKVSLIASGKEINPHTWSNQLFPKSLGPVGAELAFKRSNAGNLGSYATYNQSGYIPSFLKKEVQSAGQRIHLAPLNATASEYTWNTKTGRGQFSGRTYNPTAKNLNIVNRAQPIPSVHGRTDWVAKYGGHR

Study 1 — species: mouse; sample: microsomes or S9; tested at: 2 µM; time: 0.5 h
`Nc1ccc2nn(-c3ccccc3)nc2c1Br` gave a remaining compound of 6.78%.
`OCCN(CCO)c1ncnc2c1oc1ccc(Cl)cc12` gave a remaining compound of 17.5%.
`Oc1cc(O)c2sc3nc(-c4ccccc4Cl)ccc3c2n1` has a remaining compound of > 99%.
For `Nc1ncnc2c1c(-c1cccc(OCc3ccccc3)c1)cn2C1CC(CN2CCCC2)C1` (stereo in doubt), the remaining compound was 6.97%.
With `CN(C)S(=O)(=O)CCCS(=O)(=O)N(C)Cc1ccc(Br)cc1` the remaining compound was 2.22%.
For `CC1COc2c(N3CC4CC3CCN4C)c(F)cc3c(=O)c(C(=O)O)cn1c23` (centres unmarked), the remaining compound was 77.5%.
`COc1ccc(-c2nnc(N)n2-c2ccc(C)cc2)c(OC)c1` gave a remaining compound of 88.4%.
`CC(C)(C)c1ccc(OCCOCCOc2ccc(C(C)(C)C)cc2O)c(O)c1` has a remaining compound of 23.9%.
The remaining compound of `CCc1c2c(nc3sc(C(=O)N4CCc5cc(OC)c(OC)cc5C4)c(N)c13)CC(C)(C)CC2=O` is reported as 5.13%.

Study 2 — cell line: HaCaT; tested at: 100 µM; time: 36 h
With `CC(C)(Sc1cc(C(C)(C)C)c(O)c(C(C)(C)C)c1)Sc1cc(C(C)(C)C)c(O)c(C(C)(C)C)c1` the viability was 76.8%.
`Cc1cccc(Nc2ccncc2S(=O)(=O)NC(=O)NC(C)C)c1` has a viability of 97.4%.
For `COc1cc(CNC(=O)CCCC/C=C/C(C)C)ccc1O`, the viability was 42.9%.
`CC(C)(O/N=C(\C(=O)N[C@@H]1C(=O)N2C(C(=O)[O-])=C(C[n+]3ccccc3)CS[C@H]12)c1csc(N)n1)C(=O)O` has a viability of 99.3%.
For `c1ccc(CC2=NCCN2)cc1`, the viability was 83.9%.
`CCN(CC)CCNC(=O)c1ccc(NC(C)=O)cc1` gave a viability of 79.9%.
`Cc1ncc(CSSCc2cnc(C)c(O)c2CO)c(CO)c1O` has a viability of 112%.
For `C[C@@H]1O[C@@H](O[C@H]2[C@H](Oc3cc(O)c4c(c3)O[C@H](c3ccc(O)cc3)CC4=O)O[C@H](CO)[C@@H](O)[C@@H]2O)[C@H](O)[C@H](O)[C@H]1O`, the viability was 87.8%.
`COc1ccc([C@@H]2CC(=O)c3c(O)cc(O[C@@H]4O[C@H](CO[C@@H]5O[C@@H](C)[C@H](O)[C@@H](O)[C@H]5O)[C@@H](O)[C@H](O)[C@H]4O)cc3O2)cc1OC` has a viability of 89.4%.

Study 3 — observed: enzyme activity; action: inhibitor; tested at: 0.5 µM; relative to: control
Target: Serine/threonine-protein kinase pim-2 (PIM2, Homo sapiens, UniProt Q9P1W9)
UniProt Q9P1W9, sequence (whole entry, looked up): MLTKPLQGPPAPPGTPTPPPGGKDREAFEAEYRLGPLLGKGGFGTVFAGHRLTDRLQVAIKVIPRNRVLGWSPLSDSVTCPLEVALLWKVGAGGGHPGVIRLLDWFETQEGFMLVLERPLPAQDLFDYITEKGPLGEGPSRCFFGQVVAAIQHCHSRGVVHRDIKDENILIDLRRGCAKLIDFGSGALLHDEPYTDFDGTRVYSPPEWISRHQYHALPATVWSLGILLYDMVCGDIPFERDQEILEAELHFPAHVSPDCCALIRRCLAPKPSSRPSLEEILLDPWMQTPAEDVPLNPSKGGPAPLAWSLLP
The remaining activity of `Clc1ccc(Nc2nnc(Cc3ccncc3)c3ccccc23)cc1` is reported as 95.8%.
For `C[C@@H](N)[C@H]1CC[C@H](C(=O)Nc2ccncc2)CC1`, the remaining activity was 95.8%.
`c1cc(-c2cnn3cc(-c4ccc(OCCN5CCCCC5)cc4)cnc23)ccn1` gave a remaining activity of 112%.
For `O=C(c1ccccc1)c1ccc(N2CCOCC2)cc1O`, the remaining activity was 105%.
The remaining activity of `N#C/C(=C(/N)SC1C=CC=CC1)c1cccc(C(O)c2ccncc2)c1` (centres unmarked) is reported as 105%.
`COc1cc2c(N3CCN(C(=O)Nc4ccc(OC(C)C)cc4)CC3)ncnc2cc1OCCCN1CCCCC1` gave a remaining activity of 113%.
With `Nc1nc(Nc2ccc(S(N)(=O)=O)cc2)nn1C(=S)Nc1c(F)cccc1F` the remaining activity was 106%.
`CC(C)n1cnc2c(Nc3cccc(Cl)c3)nc(NCCO)nc21` has a remaining activity of 97%.
For `NC(=O)c1ccc(-c2nc(-c3ccc4c(c3)OCCO4)c(-c3ccccn3)[nH]2)cc1`, the remaining activity was 103%.
With `N#CC(c1ccnc(NCCc2cccnc2)n1)c1nc2ccccc2s1` (centres unmarked) the remaining activity was 91.2%.
The remaining activity of `CNc1cc2c(Nc3cccc(Br)c3)ncnc2cn1` is reported as 102%.
`CCN(CC)CCCCN1c2ccccc2Oc2ccc(Cl)cc21` gave a remaining activity of 109%.
`O=C(O)/C=C/c1cc(Br)c(Br)c(Br)c1Br` has a remaining activity of 52.8%.
`COc1cc2c(Nc3ccc(Br)cc3F)ncnc2cc1OCC1CCN(C)CC1` gave a remaining activity of 99.4%.
`FC(F)(F)c1ccc(/C=C/c2nc(COc3ccc(CCCCn4ccnn4)cc3)co2)cc1` gave a remaining activity of 116%.
`CC(C)N(CCC(=O)c1ccc2ccccc2c1)Cc1ccccc1` has a remaining activity of 104%.
With `O=C1NC(=O)/C(=C/c2ccc3c(c2)OC(F)(F)O3)S1` the remaining activity was 91.9%.
`NC(=O)c1cccc(-c2cc(Nc3ccc(OC(F)(F)F)cc3)ncn2)c1` gave a remaining activity of 115%.
`O=Nc1c(-c2c(O)[nH]c3ccccc23)[nH]c2ccccc12` gave a remaining activity of 106%.
`CC(C)(C)c1nc2c3cc[nH]c(=O)c3c3cc(F)ccc3c2[nH]1` gave a remaining activity of 90.8%.
`CCCCc1c(-c2ccc(O)cc2)[nH]c2nccnc12` has a remaining activity of 121%.

Study 4 — observed: cell-free assay; method: competition with immobilised ligand; tested at: 1 µM
SMILES: O=C(Nc1cccnn1)N1CC(C/C=C/c2cncc(Oc3ccc(C(F)(F)F)cn3)n2)C1
The remaining binding was 100% (Serine/threonine-protein kinase MAK (MAK, Homo sapiens, UniProt P20794)).
The remaining binding was 82% (Tyrosine-protein kinase FRK (FRK, Homo sapiens, UniProt P42685)).
The remaining binding was 85% (Myosin light chain kinase (MYLK3, Homo sapiens, UniProt Q32MK0)).
Eukaryotic translation initiation factor 2-alpha kinase 1 (EIF2AK1, Homo sapiens, UniProt Q9BQI3) — remaining binding: 100%.
For Serine/threonine-protein kinase 17A (STK17A, Homo sapiens, UniProt Q9UEE5): remaining binding read 100%.
It gave 82% for remaining binding (ALK tyrosine kinase receptor (ALK, Homo sapiens, UniProt Q9UM73, L1196M)).
It gave 79% for remaining binding (Serine/threonine-protein kinase ULK1 (ULK1, Homo sapiens, UniProt O75385)).
It gave 95% for remaining binding (Cyclin-dependent kinase-like 3 (CDKL3, Homo sapiens, UniProt Q8IVW4)).
The remaining binding was 97% (eIF-2-alpha kinase GCN2, C-terminal kinase domain (EIF2AK4, Homo sapiens, UniProt Q9P2K8, S808G)).
The remaining binding was 100% (Calcium/calmodulin-dependent protein kinase type II subunit gamma (CAMK2G, Homo sapiens, UniProt Q13555)).

Single results of other studies
For `CC(C)C[C@@H](O)C(=O)O`, the inhibition was -28% (Calcium/calmodulin-dependent protein kinase type II subunit alpha (CAMK2A, Homo sapiens, UniProt Q9UQM7); enzyme activity, inhibitor; 10 µM).

For quick reference, copied from above (study 3):
`NC(=O)c1cccc(-c2cc(Nc3ccc(OC(F)(F)F)cc3)ncn2)c1` gave a remaining activity of 115%.
`O=Nc1c(-c2c(O)[nH]c3ccccc23)[nH]c2ccccc12` gave a remaining activity of 106%.
`CC(C)(C)c1nc2c3cc[nH]c(=O)c3c3cc(F)ccc3c2[nH]1` gave a remaining activity of 90.8%.
